Measurements pooled from the literature.
B1: CRYAA G98R/R157Q (Homo sapiens, UniProt P02489); sequence looked up; chain MDVTIQHPWFKRTLGPFYPSRLFDQFFGEGLFEYDLLPFLSSTISPYYRQSLFRTVLDSGISEVRSDRDKFVIFLDVKHFSPEDLTVKVQDDFVEIHRKHNERQDDHGYISREFHRRYRLPSNVDQSALSCSLSADGMLTFCGPKIQTGLDATHAEQAIPVSREEKPTSAPSS
B2: CX3CL1 25-100 (Homo sapiens, UniProt P78423); sequence looked up; chain QHHGVTKCNITCSKMTSKIPVALLIHYQQNQASCGKRAIILETRQHRLFCADPKEQWVKDAMQHLDRQAAALTRNG
Sequence of UniProt P00330 (whole entry, looked up): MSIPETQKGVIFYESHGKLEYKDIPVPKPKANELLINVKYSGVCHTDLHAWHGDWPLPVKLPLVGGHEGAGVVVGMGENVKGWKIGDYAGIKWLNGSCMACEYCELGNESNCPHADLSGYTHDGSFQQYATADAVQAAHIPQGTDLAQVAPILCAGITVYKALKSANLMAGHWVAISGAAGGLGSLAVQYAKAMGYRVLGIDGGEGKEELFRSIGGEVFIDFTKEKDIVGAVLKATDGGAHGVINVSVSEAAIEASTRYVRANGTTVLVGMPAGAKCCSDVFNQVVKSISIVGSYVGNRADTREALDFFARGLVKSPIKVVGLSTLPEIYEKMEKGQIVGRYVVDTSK
Sequence of UniProt P24279 (whole entry, looked up): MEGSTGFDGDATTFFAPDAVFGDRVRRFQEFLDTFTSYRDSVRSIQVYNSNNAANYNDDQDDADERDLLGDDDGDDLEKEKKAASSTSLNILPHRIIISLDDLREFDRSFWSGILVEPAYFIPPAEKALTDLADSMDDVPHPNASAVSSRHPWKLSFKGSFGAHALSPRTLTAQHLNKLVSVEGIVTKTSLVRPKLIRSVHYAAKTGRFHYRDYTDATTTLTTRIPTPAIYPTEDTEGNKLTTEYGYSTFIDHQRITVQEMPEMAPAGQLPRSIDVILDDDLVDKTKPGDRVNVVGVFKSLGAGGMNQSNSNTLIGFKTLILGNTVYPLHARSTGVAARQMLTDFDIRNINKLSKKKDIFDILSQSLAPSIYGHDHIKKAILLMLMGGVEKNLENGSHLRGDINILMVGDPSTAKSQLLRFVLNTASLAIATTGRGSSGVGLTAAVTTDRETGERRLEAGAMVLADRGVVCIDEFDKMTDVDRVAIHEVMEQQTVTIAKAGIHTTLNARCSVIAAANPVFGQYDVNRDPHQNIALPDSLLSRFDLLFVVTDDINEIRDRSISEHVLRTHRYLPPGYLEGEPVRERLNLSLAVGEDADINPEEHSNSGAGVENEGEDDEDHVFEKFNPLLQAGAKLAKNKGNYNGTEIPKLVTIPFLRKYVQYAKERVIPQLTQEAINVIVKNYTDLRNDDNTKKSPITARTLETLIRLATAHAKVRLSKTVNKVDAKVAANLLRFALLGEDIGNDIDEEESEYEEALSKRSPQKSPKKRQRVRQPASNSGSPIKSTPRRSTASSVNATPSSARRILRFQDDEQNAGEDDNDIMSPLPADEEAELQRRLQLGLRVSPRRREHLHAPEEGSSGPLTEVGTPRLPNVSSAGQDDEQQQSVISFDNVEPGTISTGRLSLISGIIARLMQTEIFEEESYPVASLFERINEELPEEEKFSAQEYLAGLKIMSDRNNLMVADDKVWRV
Sequence of UniProt P38132 (whole entry, looked up): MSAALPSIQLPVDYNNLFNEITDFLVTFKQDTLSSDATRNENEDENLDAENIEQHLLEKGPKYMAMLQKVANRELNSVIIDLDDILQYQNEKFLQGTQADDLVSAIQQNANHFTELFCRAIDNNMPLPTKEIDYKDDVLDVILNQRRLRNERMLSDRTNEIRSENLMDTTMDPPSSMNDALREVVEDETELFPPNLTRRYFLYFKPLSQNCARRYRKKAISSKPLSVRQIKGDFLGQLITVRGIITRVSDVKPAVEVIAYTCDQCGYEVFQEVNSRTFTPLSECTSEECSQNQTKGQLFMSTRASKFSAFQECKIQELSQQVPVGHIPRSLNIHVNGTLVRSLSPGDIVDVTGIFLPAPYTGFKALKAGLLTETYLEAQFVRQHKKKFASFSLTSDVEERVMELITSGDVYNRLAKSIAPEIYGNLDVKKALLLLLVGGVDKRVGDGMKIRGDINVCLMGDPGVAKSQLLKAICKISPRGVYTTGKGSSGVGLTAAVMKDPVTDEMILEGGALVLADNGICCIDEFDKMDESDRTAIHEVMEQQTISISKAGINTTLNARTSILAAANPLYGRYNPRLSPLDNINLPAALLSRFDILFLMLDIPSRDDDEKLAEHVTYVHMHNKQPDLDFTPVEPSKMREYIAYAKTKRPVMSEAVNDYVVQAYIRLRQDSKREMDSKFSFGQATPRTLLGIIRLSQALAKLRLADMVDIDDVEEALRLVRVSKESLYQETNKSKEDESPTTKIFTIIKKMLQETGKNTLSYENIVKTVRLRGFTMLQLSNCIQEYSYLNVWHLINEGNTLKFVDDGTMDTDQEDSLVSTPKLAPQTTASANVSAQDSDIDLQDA
Sequence of UniProt O00567 (whole entry, looked up): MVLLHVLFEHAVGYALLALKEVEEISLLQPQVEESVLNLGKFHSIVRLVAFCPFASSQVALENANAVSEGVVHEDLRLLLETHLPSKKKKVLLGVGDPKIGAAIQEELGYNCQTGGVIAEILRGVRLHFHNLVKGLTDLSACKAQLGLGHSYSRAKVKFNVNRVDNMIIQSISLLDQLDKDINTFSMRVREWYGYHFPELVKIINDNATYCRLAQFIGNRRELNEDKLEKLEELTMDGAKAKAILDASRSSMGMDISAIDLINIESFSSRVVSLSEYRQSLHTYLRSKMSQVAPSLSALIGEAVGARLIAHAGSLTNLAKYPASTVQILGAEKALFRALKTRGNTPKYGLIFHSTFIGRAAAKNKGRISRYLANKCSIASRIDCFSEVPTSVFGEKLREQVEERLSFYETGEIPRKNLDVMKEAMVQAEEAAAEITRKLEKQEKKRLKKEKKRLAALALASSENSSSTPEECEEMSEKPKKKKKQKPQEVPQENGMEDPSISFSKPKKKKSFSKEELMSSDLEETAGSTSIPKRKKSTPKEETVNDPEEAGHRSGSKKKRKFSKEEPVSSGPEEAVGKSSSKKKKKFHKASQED
Sequence of UniProt P22087 (whole entry, looked up): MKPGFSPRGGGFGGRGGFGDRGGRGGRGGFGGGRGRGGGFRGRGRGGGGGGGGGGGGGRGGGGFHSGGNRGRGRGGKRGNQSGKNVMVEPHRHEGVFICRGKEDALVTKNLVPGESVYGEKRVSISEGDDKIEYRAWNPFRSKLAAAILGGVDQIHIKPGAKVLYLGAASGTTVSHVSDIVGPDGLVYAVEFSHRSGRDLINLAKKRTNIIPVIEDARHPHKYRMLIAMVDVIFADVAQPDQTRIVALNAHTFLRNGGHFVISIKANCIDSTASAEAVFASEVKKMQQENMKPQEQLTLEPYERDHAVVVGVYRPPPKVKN
Sequence of UniProt P13647 (whole entry, looked up): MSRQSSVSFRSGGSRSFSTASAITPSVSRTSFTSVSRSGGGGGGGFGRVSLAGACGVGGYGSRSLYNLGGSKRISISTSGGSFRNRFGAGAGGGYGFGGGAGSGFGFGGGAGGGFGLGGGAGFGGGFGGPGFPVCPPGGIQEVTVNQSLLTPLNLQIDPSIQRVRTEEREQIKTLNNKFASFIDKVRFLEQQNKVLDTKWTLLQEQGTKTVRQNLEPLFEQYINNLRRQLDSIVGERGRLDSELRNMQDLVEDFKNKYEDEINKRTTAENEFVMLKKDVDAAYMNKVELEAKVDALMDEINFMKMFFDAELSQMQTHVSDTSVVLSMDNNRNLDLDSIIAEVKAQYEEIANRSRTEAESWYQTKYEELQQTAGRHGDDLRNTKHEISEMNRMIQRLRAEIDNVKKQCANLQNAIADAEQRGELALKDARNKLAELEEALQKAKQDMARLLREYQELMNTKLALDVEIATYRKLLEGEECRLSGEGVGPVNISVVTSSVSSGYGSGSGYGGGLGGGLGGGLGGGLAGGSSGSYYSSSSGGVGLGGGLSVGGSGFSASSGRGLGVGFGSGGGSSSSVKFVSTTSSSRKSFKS

`B1 (CRYAA G98R/R157Q)`: “ADH aggregation suppression IC50” 25 µg (ADH1 (Saccharomyces cerevisiae, UniProt P00330); EDTA-induced ADH aggregation, absorbance, inhibitor; 250 µg).
`ALB (Homo sapiens, UniProt P02768)`: cross-linked residues “K549 to K274” (ATP6V1C1 (Homo sapiens, UniProt P21283); cross-linking MS; added: DSSO).
`DSP C-terminal tail 1987-end (Homo sapiens)` has a relative binding of greater than 6 fold (KRT5 1-71 (Homo sapiens, UniProt P13647); far-Western; baseline: 93-residue peptide, higher = more binding).
`SLC4A1 (Homo sapiens, UniProt P02730)` — result for cross-linked residues: “K360 to E67” (EPB42 (Homo sapiens, UniProt P16452); cross-linking MS; added: DSSO or DMTMM).
With `GSGAGRETEV` the binding intensity was 0.977 (human SCRIB PDZ3-4 tandem (MBP fusion); automated holdup; peptide, crude extract; concentration not given, uncorrected, unit not given; baseline: biotin control resin, higher = stronger binding).
For `ZNF197 (Homo sapiens, UniProt O14709)`, cross-linked residues read “K591 to K153” (FGG (Homo sapiens, UniProt P02679); cross-linking MS; added: DSSO).
With `B2 (CX3CL1 25-100)` the Ki was 0.15 nM (CX3CR1 (Homo sapiens, UniProt P49238-4); AlphaScreen or HTRF).
`LEIEPRNPKP (SOS1 proline-rich peptide, 1014-1023)`: “chemical shift perturbation” 0.05 ppm (GRB2 1-58 (Homo sapiens, UniProt P62993); NMR titration; peptide).
`MCM3 (Saccharomyces cerevisiae, UniProt P24279)` — result for interaction screen: “cross-linked” (MCM7 (Saccharomyces cerevisiae, UniProt P38132); cross-linking MS; hits only).
`NOP56 (Homo sapiens, UniProt O00567)` — result for cross-linked residues: “K158 to K222” (FBL (Homo sapiens, UniProt P22087); cross-linking MS; cells; added: iqPIR).
Under “association time constant”, `MEKVQYLTRSAIRRASTIEMPQQARQKLQNLFINFCLILICLLLICIIVMLL (PLN fused to mCerulean3 or YFP (Homo sapiens, UniProt P26678))` is recorded as 3.58 s (SERCA2a (UniProt P16615-2); FRET; in cells).
`FGA (Homo sapiens, UniProt P02671)`: cross-linked residues “K157 to K47” (NTMT1 (Homo sapiens, UniProt Q9BV86); cross-linking MS; added: DSSO).
`GSGAGKETRV` has a binding intensity of 0.804 (human SCRIB PDZ3-4 tandem (MBP fusion); automated holdup; peptide, crude extract; concentration not given, uncorrected, unit not given; baseline: biotin control resin, higher = stronger binding).
Under cross-linked residues, `FGB (Homo sapiens, UniProt P02675)` is recorded as “K157 to K667” (KIF9 (Homo sapiens, UniProt Q9HAQ2); cross-linking MS; added: DSSO).
`colistin` has an MIC of greater than 64 µg/mL (Klebsiella pneumoniae; broth microdilution; clinical isolate RKI-No_95/16).

A few entries again:
For `ZNF197 (Homo sapiens, UniProt O14709)`, cross-linked residues read “K591 to K153” (FGG (Homo sapiens, UniProt P02679); cross-linking MS; added: DSSO).
With `B2 (CX3CL1 25-100)` the Ki was 0.15 nM (CX3CR1 (Homo sapiens, UniProt P49238-4); AlphaScreen or HTRF).
